Experimental data collected from several papers.
Protocols differ between the studies behind these lines. “And” joins repeats or separate records; there may be more than shown. ± gives the spread as reported.
PLEKHA4 PH domain: Pleckstrin homology domain-containing family A member 4, PH domain (PLEKHA4, Homo sapiens, UniProt Q9H4M7)
Sequence of UniProt Q9H4M7 (whole entry, looked up): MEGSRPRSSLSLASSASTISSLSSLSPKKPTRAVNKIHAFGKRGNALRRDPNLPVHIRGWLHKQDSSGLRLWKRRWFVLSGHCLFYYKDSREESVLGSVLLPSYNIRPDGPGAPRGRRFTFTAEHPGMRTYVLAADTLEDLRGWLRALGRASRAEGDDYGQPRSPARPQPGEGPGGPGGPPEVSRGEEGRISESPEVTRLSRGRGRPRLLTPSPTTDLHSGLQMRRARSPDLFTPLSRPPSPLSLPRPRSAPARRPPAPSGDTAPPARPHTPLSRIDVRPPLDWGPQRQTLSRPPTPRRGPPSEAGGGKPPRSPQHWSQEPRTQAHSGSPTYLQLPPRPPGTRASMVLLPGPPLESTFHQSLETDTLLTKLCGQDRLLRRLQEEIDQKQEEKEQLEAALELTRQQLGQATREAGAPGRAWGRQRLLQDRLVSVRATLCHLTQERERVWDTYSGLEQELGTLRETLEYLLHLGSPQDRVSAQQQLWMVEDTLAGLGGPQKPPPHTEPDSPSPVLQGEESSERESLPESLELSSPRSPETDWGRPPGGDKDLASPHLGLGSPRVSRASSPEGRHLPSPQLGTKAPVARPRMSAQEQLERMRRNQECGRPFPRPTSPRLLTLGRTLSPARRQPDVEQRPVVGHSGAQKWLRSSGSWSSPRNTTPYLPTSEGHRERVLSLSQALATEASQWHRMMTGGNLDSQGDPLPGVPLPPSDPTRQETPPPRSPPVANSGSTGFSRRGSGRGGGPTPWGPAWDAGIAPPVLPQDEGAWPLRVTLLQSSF
Sequence of UniProt P28566 (whole entry, looked up): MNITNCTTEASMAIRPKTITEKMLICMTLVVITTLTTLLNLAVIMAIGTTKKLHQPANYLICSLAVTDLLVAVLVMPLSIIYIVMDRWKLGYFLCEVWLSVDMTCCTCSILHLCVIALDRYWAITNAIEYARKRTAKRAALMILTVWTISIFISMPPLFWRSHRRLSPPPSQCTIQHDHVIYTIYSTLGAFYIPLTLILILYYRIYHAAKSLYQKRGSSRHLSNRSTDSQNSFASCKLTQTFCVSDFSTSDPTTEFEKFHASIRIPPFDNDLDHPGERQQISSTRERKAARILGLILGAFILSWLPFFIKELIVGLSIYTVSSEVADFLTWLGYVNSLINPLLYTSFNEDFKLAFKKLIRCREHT
Sequence of UniProt Q15391 (whole entry, unmodified, looked up): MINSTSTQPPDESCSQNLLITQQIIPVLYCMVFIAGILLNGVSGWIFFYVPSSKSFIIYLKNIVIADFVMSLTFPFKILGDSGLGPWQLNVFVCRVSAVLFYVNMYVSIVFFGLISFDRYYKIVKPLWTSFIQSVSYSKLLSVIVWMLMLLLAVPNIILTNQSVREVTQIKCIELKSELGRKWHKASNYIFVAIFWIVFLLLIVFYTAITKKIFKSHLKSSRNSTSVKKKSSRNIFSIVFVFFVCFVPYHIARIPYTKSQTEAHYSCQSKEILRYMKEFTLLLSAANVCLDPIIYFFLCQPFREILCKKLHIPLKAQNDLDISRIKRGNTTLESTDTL
Sequence of UniProt Q6IQ20 (whole entry, looked up): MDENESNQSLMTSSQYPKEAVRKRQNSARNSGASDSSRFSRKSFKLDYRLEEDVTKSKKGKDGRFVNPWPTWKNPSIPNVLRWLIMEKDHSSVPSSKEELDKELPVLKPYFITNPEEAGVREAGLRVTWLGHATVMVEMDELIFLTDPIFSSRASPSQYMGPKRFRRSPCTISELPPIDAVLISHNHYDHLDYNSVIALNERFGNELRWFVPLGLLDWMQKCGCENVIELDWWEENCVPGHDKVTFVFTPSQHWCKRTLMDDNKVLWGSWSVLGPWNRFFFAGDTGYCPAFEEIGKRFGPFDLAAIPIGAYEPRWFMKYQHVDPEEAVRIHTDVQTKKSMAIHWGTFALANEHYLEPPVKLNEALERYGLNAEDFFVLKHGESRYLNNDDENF
Sequence of UniProt P07339 (whole entry, looked up): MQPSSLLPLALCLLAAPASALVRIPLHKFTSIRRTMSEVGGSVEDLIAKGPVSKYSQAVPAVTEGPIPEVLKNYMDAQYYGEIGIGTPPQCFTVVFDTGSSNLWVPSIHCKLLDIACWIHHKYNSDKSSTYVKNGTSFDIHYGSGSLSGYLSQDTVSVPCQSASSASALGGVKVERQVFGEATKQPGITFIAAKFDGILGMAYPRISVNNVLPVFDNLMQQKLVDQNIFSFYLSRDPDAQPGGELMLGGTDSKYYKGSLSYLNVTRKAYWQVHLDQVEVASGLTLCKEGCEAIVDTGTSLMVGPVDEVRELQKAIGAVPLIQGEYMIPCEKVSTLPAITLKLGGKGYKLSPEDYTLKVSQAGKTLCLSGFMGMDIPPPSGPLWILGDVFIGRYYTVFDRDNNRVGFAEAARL
Sequence of UniProt Q9HCR9 (whole entry, looked up): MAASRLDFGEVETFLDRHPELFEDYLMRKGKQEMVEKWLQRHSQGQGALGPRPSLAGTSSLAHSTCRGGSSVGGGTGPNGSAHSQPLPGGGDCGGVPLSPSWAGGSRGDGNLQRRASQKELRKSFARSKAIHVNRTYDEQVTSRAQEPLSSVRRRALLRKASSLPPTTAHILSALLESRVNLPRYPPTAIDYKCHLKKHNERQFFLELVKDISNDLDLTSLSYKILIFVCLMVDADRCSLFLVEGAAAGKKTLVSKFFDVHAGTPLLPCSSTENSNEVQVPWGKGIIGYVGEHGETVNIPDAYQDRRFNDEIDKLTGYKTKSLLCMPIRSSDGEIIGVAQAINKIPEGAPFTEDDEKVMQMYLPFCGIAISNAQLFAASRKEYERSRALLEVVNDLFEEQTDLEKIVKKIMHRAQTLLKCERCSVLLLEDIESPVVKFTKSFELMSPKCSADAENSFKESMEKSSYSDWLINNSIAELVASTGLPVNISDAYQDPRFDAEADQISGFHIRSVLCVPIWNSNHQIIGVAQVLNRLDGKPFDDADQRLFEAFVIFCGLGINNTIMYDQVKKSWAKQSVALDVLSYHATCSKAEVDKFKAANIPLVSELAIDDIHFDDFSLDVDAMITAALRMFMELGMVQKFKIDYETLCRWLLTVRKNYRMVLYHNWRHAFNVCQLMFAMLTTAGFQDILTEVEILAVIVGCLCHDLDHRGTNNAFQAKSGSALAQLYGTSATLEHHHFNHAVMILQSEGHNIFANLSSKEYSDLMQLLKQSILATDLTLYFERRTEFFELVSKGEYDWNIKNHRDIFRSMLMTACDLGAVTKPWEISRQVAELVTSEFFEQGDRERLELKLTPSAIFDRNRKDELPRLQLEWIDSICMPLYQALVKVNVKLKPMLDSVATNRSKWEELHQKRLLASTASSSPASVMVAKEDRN

target	test	test system	setting	Ki	SMILES
CYP3A, rat	poziotinib metabolism to M1, inhibitor	rat liver microsomes	together with: poziotinib	37.5 µM	COc1cc2c(c(OC)c1OC)-c1c(cc(OC)c(OC)c1OC)C[C@H](C)[C@H](C)C2
P2Y purinoceptor 14 (P2RY14, Homo sapiens, UniProt Q15391, Q260A)				> 3 µM	O=c1ccn([C@@H]2O[C@H](COP(=O)(O)OP(=O)(O)O[C@H]3O[C@H](CO)[C@@H](O)[C@H](O)[C@H]3O)[C@@H](O)[C@H]2O)c(=S)[nH]1
LysM receptor-like kinase (Brachypodium distachyon, UniProt A0A0Q3FRN3)	LCO binding, radioligand competition binding	membrane fractions		0.0025 µM and 0.0161 µM and 0.0039 µM	CC(=O)N[C@H]1[C@H](O[C@H]2[C@H](O)[C@@H](NC(C)=O)[C@H](O[C@H]3[C@H](O)[C@@H](NC(C)=O)[C@H](O[C@H]4[C@H](O)[C@@H](NC(C)=O)C(O)O[C@@H]4CO)O[C@@H]3CO)O[C@@H]2CO)O[C@H](CO)[C@@H](O[C@@H]2O[C@H](CO)[C@@H](O[C@@H]3O[C@H](CO)[C@@H](O[C@@H]4O[C@H](CO)[C@@H](O[C@@H]5O[C@H](CO)[C@@H](O)[C@H](O)[C@H]5NC(C)=O)[C@H](O)[C@H]4NC(C)=O)[C@H](O)[C@H]3NC(C)=O)[C@H](O)[C@H]2NC(C)=O)[C@@H]1O (stereo partly drawn)
Cathepsin D (CTSD, Homo sapiens, UniProt P07339)	inhibitor			3.8 µM	CC#Cc1cncc(-c2ccc3c(c2)[C@@]2(N=C(C)C(N)=N2)[C@]2(CC[C@H](OC)CC2)C3)c1
PLEKHA4 PH domain	PLEKHA4 PI(4,5)P2 binding, fluorescence polarization		together with: BODIPY-PI(4,5)P2 tracer	7.85 ± 0.59 µM	CCOc1ccc(-c2cc(C(=O)O)c(-c3ccc(Cl)cc3)o2)cc1
HTR1E (Homo sapiens, UniProt P28566)	binding			0.0261 µM	CN1CCN2c3ccccc3Cc3ccccc3C2C1 (stereo not drawn)
PLEKHA4 PH domain	PLEKHA4 PI(4,5)P2 binding, fluorescence polarization		together with: BODIPY-PI(4,5)P2 tracer	142 ± 23 µM	CCOc1ccc(C(=O)CC(SCc2ccc(Br)cc2)C(=O)O)cc1 (stereo not drawn)
N-acyl-phosphatidylethanolamine-hydrolyzing phospholipase D (Homo sapiens, UniProt Q6IQ20)				4.27 µM	Oc1c(Cl)cc(Cl)c(Cl)c1Cc1c(O)c(Cl)cc(Cl)c1Cl
PLEKHA4 PH domain	PLEKHA4 PI(4,5)P2 binding, fluorescence polarization		together with: BODIPY-PI(4,5)P2 tracer	144 ± 3 µM	CCOc1ccc(C(=O)CC(SCc2ccc(F)cc2)C(=O)O)cc1 (stereo not drawn)
CYP3A, rat	poziotinib metabolism to M1, inhibitor	rat liver microsomes	together with: poziotinib	2.61 µM	COc1cc2c(c(OC)c1OC)-c1c(cc3c(c1OC)OCO3)CC(C)C(C)C2 (stereo not drawn)
PLEKHA4 PH domain	PLEKHA4 PI(4,5)P2 binding, fluorescence polarization		together with: BODIPY-PI(4,5)P2 tracer	32.3 ± 2.5 µM	CCOc1cccc(C(=O)CC(SCc2cccc(Br)c2)C(=O)O)c1 (stereo not drawn)
PDE11A (Homo sapiens, UniProt Q9HCR9)	enzyme activity, inhibitor, IMAP fluorescence polarization		isoform PDE11A4, together with: cAMP substrate	> 95.2 µM	Cc1ccc([C@H]2C[C@@H]2COc2cc(NCc3nnc(C)s3)nc(C)n2)nc1

A few entries again:
target	test	test system	setting	Ki	SMILES
PLEKHA4 PH domain	PLEKHA4 PI(4,5)P2 binding, fluorescence polarization		together with: BODIPY-PI(4,5)P2 tracer	144 ± 3 µM	CCOc1ccc(C(=O)CC(SCc2ccc(F)cc2)C(=O)O)cc1 (stereo not drawn)
CYP3A, rat	poziotinib metabolism to M1, inhibitor	rat liver microsomes	together with: poziotinib	2.61 µM	COc1cc2c(c(OC)c1OC)-c1c(cc3c(c1OC)OCO3)CC(C)C(C)C2 (stereo not drawn)
